Literature values as cited in several papers.
± marks the error that the study gave. Converted amounts (≈) assume the structure as drawn.

SMILES	tested on	test	test system	setting	measurement	result
O=C(NCCc1ccc(Cl)c(Cl)c1)Nc1cccc2cnccc12	TRPV1	calcium flux, antagonist	HEK293	added: capsaicin	IC50	10 nM
Oc1ccc(-c2nc(-c3ccc(OC4CCCC4)cc3)no2)cc1	Streptococcus oralis		ATCC 9811		MIC	> 128 mg/L
COc1ccccc1Oc1cccc(CN2CCC(NC(=O)C3CC(=O)Nc4ccccc43)CC2)c1 (stereo not drawn)	human CCR8 Y114A mutant (TM3)	IP accumulation, agonist			EC50	945 nM
CNC(C)C1CCC(N)C(OC2C(N)CC(N)C(OC3OCC(C)(O)C(NC)C3O)C2O)O1 (stereo not drawn)	Pseudomonas aeruginosa		clinical isolate RKI-No_48/09		MIC	> 8 mg/L
CCNS(=O)(=O)c1ccc(OC)cc1C1(O)CCN(Cc2cccc(Oc3ccccc3OC)c2)CC1	human CCR8 Y42A mutant (TM1)	IP accumulation, agonist			EC50	178 nM
CC1(C)S[C@@H]2[C@H](NC(=O)[C@H](N)c3ccccc3)C(=O)N2[C@H]1C(=O)O	Klebsiella pneumoniae		clinical isolate RKI-No_93/10		MIC	> 16 mg/L
O=C(CCc1ccc(Cl)cc1)Nc1cccc2ccc(O)cc12	TRPV1	calcium flux, antagonist	HEK293	added: capsaicin	IC50	21 nM
Cc1cnc(N2CC3(CCOCC3)C2)c(C(=O)Nc2ccc(C(=O)N3CCc4cc(C(=O)Nc5c(C)cccc5F)sc4-c4ccccc43)cc2)c1	respiratory syncytial virus	cytopathic effect	B WST		IC90	40.8 ng/mL (≈ 0.057 µM)
C[C@H]1COCCN1c1nc(-c2cnc(N)cc2C(F)F)nc(N2CCOCC2)n1	DLD-1				GI50	538 nM
Cc1c(C#N)cccc1[C@@H](C)Nc1nnc(C)c2cnc(N3CCOCC3)cc12	NCI-H508	ERK phosphorylation, In-Cell Western, measured: phospho-ERK			IC50	22.5 ± 19.3 nM
CC(C)(C)COc1nc(C(F)(F)F)ccc1CNC(=O)Nc1cccc2[nH]ncc12	TRPV1	calcium flux, antagonist	HEK293	added: capsaicin	IC50	6 nM
Nc1cc(C(F)(F)F)c(-c2nc(N3CCOCC3)nc(N3CCOCC3)n2)cn1	OVCAR-3				GI50	229 nM
O=C(NCc1ccc(C(F)(F)F)nc1N1CCOCC1)Nc1cccc2[nH]ncc12	TRPV1	calcium flux, antagonist	HEK293	added: capsaicin	IC50	12 nM
COc1ccccc1Oc1cccc(CN2CCC(NC(=O)C(CCN3CCCC3)c3ccccc3)CC2)c1 (stereo not drawn)	human CCR8 H283A mutant (TM7)	IP accumulation, agonist			EC50	17 nM
O=C(Nc1ccc(C(F)(F)F)cc1)N1CCC2(CC1)C(=O)N(c1ccccn1)[C@H]2c1ccccc1	TRPV1	calcium flux, antagonist	HEK293	added: capsaicin	IC50	13 nM
CCCCC(C)C(=O)O (stereo not drawn)	CALUX reporter cell lines	reporter gene		cell-total, minimum across	EC10	4 µM
FC(F)(F)c1ccc(Nc2nc(N3CCCC3)nc3sc(Nc4c(Cl)cccc4Cl)nc23)cc1	TRPV1	calcium flux, antagonist	HEK293	added: capsaicin	IC50	12 nM
COc1ccccc1Oc1cccc(CN2CCC3(CC2)C(=O)NCN3CCc2ccccc2)c1	human CCR8 S110A mutant (TM3)	IP accumulation, agonist			EC50	1.5 nM

For quick reference, copied from above:
SMILES	tested on	test	test system	setting	measurement	result
CCNS(=O)(=O)c1ccc(OC)cc1C1(O)CCN(Cc2cccc(Oc3ccccc3OC)c2)CC1	human CCR8 Y42A mutant (TM1)	IP accumulation, agonist			EC50	178 nM
